Published values collected from several papers.
Every numbered part comes from another study and shows a few of its results, in no order. “And” joins repeats or separate records; there may be more than shown.
Sequence of UniProt Q9UF33 (whole entry, looked up): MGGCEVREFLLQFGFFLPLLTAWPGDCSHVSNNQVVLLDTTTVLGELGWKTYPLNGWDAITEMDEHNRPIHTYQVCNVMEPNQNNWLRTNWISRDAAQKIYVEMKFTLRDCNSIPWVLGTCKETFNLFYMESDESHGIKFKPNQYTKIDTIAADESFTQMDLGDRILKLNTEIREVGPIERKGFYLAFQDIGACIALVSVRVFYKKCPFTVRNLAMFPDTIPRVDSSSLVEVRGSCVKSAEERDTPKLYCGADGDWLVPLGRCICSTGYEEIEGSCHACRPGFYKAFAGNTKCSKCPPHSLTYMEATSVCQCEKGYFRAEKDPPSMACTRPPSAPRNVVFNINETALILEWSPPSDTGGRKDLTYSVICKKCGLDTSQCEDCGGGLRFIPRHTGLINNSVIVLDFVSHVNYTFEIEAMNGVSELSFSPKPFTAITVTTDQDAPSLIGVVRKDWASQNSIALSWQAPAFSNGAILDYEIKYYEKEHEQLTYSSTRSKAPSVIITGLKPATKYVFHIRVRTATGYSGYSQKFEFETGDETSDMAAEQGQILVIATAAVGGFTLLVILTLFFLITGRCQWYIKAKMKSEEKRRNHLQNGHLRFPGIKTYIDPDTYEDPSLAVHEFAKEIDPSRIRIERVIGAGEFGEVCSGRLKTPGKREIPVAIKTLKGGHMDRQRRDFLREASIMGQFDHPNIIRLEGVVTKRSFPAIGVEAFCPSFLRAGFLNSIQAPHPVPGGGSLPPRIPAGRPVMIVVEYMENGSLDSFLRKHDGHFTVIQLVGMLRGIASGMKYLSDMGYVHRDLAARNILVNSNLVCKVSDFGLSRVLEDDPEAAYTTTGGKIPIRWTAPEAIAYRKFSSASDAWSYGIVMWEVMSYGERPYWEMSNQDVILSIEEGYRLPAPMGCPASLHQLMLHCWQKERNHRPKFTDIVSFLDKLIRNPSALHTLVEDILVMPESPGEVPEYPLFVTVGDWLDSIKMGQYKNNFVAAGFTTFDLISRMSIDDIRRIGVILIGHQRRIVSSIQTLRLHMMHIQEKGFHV
Sequence of UniProt Q9H093 (whole entry, looked up): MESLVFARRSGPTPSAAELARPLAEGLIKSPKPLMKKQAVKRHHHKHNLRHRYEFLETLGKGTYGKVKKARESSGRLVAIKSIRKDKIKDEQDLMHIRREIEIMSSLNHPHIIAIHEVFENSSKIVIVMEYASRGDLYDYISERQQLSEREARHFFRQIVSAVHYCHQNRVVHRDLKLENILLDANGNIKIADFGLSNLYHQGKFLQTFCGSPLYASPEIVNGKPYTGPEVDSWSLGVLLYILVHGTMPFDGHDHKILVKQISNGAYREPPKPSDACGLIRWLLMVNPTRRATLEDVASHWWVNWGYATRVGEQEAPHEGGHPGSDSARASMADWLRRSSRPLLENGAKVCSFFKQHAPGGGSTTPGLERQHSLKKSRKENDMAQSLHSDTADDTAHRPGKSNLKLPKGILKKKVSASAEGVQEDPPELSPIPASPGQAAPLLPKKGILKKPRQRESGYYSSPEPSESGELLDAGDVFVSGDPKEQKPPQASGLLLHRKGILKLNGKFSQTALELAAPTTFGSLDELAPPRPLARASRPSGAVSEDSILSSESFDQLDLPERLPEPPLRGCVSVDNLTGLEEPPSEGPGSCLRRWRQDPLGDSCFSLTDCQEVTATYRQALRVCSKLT
Sequence of UniProt P15735 (whole entry, looked up): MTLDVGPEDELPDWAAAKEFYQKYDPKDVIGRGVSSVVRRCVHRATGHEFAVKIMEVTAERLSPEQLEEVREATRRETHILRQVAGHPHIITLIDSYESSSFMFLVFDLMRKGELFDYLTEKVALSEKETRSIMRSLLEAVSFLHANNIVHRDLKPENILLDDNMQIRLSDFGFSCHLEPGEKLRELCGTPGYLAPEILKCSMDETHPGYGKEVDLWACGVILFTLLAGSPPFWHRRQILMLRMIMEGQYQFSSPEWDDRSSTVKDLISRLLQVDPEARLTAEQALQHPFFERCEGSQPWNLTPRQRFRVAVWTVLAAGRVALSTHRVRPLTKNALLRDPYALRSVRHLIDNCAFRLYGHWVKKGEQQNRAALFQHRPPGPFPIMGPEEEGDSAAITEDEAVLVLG
Sequence of UniProt Q8TD19 (whole entry, looked up): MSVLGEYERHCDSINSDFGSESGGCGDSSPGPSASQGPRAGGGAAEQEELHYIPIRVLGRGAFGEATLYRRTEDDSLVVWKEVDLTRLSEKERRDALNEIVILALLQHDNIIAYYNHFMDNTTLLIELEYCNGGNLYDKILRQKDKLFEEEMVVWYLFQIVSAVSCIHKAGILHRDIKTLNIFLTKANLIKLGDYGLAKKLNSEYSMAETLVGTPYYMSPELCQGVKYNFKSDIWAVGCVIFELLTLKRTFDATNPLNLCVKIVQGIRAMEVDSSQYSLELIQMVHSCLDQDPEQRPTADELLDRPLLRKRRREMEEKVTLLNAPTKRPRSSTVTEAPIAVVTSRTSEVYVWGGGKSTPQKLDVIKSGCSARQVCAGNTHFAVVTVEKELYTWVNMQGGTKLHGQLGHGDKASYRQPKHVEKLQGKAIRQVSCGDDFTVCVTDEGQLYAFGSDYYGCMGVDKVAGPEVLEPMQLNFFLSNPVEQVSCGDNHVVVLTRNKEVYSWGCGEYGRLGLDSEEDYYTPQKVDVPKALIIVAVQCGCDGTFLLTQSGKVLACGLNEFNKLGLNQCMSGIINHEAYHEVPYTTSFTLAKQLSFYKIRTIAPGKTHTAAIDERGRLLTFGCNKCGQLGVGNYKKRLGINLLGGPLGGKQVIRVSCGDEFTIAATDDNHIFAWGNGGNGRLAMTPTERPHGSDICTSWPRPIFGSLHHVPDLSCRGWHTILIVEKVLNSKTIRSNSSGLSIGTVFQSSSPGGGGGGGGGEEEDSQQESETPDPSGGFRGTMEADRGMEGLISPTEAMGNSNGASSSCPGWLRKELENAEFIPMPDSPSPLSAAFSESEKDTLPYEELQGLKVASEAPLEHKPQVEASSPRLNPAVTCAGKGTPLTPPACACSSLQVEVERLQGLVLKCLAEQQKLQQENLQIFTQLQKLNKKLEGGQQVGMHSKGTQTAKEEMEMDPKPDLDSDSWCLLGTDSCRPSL
Sequence of UniProt Q96SB4 (whole entry, looked up): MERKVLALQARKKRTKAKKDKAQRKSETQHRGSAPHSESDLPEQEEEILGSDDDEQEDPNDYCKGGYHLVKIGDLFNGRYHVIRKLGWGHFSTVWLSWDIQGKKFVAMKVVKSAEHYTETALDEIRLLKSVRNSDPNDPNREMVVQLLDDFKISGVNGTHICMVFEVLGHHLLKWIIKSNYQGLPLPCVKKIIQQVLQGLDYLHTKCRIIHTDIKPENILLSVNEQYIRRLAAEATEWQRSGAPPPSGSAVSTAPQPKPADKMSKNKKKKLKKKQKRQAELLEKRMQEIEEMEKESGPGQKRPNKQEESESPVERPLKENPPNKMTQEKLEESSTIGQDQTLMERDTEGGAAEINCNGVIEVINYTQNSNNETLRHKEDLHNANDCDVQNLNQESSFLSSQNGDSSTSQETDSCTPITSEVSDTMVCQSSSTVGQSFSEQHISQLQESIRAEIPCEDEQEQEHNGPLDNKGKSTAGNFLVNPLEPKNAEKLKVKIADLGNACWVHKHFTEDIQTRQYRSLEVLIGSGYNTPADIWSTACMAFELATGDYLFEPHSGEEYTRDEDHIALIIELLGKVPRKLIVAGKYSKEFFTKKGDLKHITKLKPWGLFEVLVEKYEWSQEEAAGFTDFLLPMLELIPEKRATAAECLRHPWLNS
Sequence of UniProt P51617 (whole entry, looked up): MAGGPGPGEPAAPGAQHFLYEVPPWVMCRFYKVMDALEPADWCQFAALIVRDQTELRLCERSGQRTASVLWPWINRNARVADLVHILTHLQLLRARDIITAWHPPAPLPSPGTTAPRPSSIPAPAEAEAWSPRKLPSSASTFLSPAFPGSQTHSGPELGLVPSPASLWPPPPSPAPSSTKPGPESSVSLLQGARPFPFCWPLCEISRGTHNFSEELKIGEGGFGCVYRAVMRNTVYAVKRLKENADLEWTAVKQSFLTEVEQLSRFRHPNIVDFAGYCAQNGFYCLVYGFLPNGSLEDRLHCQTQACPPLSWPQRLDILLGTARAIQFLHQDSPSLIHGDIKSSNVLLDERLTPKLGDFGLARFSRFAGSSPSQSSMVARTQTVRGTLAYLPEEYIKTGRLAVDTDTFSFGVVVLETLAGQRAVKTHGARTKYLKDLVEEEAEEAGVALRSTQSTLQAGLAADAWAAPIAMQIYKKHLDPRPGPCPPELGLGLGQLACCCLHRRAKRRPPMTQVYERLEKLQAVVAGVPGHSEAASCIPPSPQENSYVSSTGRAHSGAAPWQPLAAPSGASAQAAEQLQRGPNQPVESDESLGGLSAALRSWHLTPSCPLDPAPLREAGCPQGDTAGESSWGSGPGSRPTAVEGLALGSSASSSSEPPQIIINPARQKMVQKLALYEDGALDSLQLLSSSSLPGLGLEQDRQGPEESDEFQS
Sequence of UniProt Q9P1W9 (whole entry, looked up): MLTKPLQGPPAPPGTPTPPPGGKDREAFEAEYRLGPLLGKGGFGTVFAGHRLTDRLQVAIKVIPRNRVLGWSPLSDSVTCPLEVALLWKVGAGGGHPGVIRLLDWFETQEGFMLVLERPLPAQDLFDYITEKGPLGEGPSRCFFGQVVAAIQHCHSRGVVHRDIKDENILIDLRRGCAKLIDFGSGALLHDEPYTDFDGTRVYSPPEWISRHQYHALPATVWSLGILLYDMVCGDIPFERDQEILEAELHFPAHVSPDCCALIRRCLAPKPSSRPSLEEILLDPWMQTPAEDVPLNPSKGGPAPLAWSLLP

Series 1 — effect on: enzyme activity; action: inhibitor; tested at: 0.5 µM; baseline: control
Compound: FC(F)(F)c1ccc(/C=C/c2nc(COc3ccc(CCCCn4ccnn4)cc3)co2)cc1
target	remaining activity [%]
Ephrin type-A receptor 6 (EPHA6, Homo sapiens, UniProt Q9UF33)	99.3
Dual specificity protein kinase CLK2 (CLK2, Homo sapiens, UniProt P49760)	89.6
Tyrosine-protein kinase Tec (TEC, Homo sapiens, UniProt P42680)	86.4
Serine/threonine-protein kinase Sgk2 (SGK2, Homo sapiens, UniProt Q9HBY8)	103
Casein kinase I isoform delta (CSNK1D, Homo sapiens, UniProt P48730)	96.6
SRSF protein kinase 1 (SRPK1, Homo sapiens, UniProt Q96SB4)	98.1
Calcium/calmodulin-dependent protein kinase type 1 (CAMK1, Homo sapiens, UniProt Q14012)	105
Vascular endothelial growth factor receptor 1 (FLT1, Homo sapiens, UniProt P17948)	95.5
Serine/threonine-protein kinase PAK 6 (PAK6, Homo sapiens, UniProt Q9NQU5)	100
Tyrosine-protein kinase receptor TYRO3 (TYRO3, Homo sapiens, UniProt Q06418)	103
Insulin-like growth factor 1 receptor (IGF1R, Homo sapiens, UniProt P08069)	101

Series 2 — effect on: cell-free assay; method: competition with immobilised ligand; tested at: 1 µM
Compound: CC1=C(C#N)[C@@H](c2ccc3[nH]nc(C)c3c2)C(C#N)=C(c2ccc(Cl)cc2)N1
target	remaining binding [%]
Phosphorylase b kinase gamma catalytic chain, liver/testis isoform (PHKG2, Homo sapiens, UniProt P15735)	100
Serine/threonine-protein kinase Nek9 (NEK9, Homo sapiens, UniProt Q8TD19)	95.6
NUAK family SNF1-like kinase 2 (NUAK2, Homo sapiens, UniProt Q9H093)	100
Atypical kinase COQ8B, mitochondrial (COQ8B, Homo sapiens, UniProt Q96D53)	78.8
Serine/threonine-protein kinase ULK3 (ULK3, Homo sapiens, UniProt Q6PHR2)	88.3
Receptor tyrosine-protein kinase erbB-2 (ERBB2, Homo sapiens, UniProt P04626)	100
Serine/threonine-protein kinase pim-2 (PIM2, Homo sapiens, UniProt Q9P1W9)	100
Mitogen-activated protein kinase kinase kinase 13 (MAP3K13, Homo sapiens, UniProt O43283)	100
Ephrin type-A receptor 6 (EPHA6, Homo sapiens, UniProt Q9UF33)	100
RAC-gamma serine/threonine-protein kinase (AKT3, Homo sapiens, UniProt Q9Y243)	82.8
Interleukin-1 receptor-associated kinase 1 (IRAK1, Homo sapiens, UniProt P51617)	100
Ribosomal protein S6 kinase beta-1 (RPS6KB1, Homo sapiens, UniProt P23443)	62.2
Activin receptor type-1 (ACVR1, Homo sapiens, UniProt Q04771)	100

Mixed results
Structure (SMILES)	target or system	assay	conditions	scale	endpoint	value
CC1=C(/C=C/C(C)=C/C=C/C(C)=C/C(=O)O)C(C)(C)CCC1	HuT78	trypan blue	concentration not given, day 0	baseline: untreated control	relative cell number	1.11 and 0.937 and 1.12
CC(C)C[C@@H]1NC(=O)[C@H](C)NC(=O)[C@@H](CC(C)C)NC(=O)[C@H](CC(C)C)NC(=O)[C@H](C(C)C)NC(=O)[C@H](CC(C)C)NC(=O)[C@@H](CC(C)C)NC1=O	–	logD(dd/w) and ALogP	JT method	–	lipophilic permeability efficiency	2.61

Excerpt of the above (series 2):
target	remaining binding [%]
Serine/threonine-protein kinase Nek9 (NEK9, Homo sapiens, UniProt Q8TD19)	95.6
Serine/threonine-protein kinase ULK3 (ULK3, Homo sapiens, UniProt Q6PHR2)	88.3
